Results of several laboratories.
A part holds a random share of what one study measured. Substitutions count along the parent as printed.

Series 1
Target: Prothrombin, mature alpha-thrombin (F2, Homo sapiens, UniProt P00734)
Technique: aptamer microarray, sandwich
Form: DNA with 2'F-ANA
Matrix: in vitro
Concentration: 200 nM
Notes: whole 15-mer aptamer, many near background
Added: Cy3 exosite-II aptamer, 400 nM
Direction: higher = stronger binding
Sequence: GGTTGGTGTGGTTGG
Under “mean fluorescence intensity”, `2'F-ANA at 2 4 5 6 7 8 9 10 11 13 14` is recorded as 63.5 a.u.
Under “mean fluorescence intensity”, `2'F-ANA at 1 2 4 7 10 12 13 14 15` is recorded as 58.7 a.u.
Under “mean fluorescence intensity”, `2'F-ANA at 1 2 3 9 11 12 13` is recorded as 284 a.u.
Under “mean fluorescence intensity”, `2'F-ANA at 4 5 10 12 14 15` is recorded as 62.1 a.u.
`2'F-ANA at 5 6 7 8 9 11 13 14`: “mean fluorescence intensity” 45.9 a.u.
Under “mean fluorescence intensity”, `2'F-ANA at 2 5 7 11 12 13 14` is recorded as 46.4 a.u.
`2'F-ANA at 1 3 6 10 13 14`: “mean fluorescence intensity” 61 a.u.
Under “mean fluorescence intensity”, `2'F-ANA at 4 6 7 12 15` is recorded as 563 a.u.
`2'F-ANA at 1 2 4 6 9 11 15`: “mean fluorescence intensity” 89.6 a.u.
Under “mean fluorescence intensity”, `2'F-ANA at 2 3 4 6 7 8 9 10 11 12 14 15` is recorded as 138 a.u.
`2'F-ANA at 1 5 10 11`: “mean fluorescence intensity” 47.9 a.u.
`2'F-ANA at 2 7 8 9 11 13 14 15` — result for “mean fluorescence intensity”: 141 a.u.
Under “mean fluorescence intensity”, `2'F-ANA at 1 2 3 4 6 8 9 10 12 14 15` is recorded as 52.9 a.u.
Under “mean fluorescence intensity”, `2'F-ANA at 1 2 4 6 7 11 13 14 15` is recorded as 57.5 a.u.
`2'F-ANA at 4 7 11 12 13`: “mean fluorescence intensity” 380 a.u.
`2'F-ANA at 1 2 4 5 8 9 12 13 14` — result for “mean fluorescence intensity”: 87.7 a.u.
`2'F-ANA at 3 6 9 11 12 13 14 15`: “mean fluorescence intensity” 567 a.u.
For `2'F-ANA at 1 3 4 6 8 12 13 15`, “mean fluorescence intensity” read 267 a.u.
`2'F-ANA at 1 2 3 7 9 10 11 12 14 15` — result for “mean fluorescence intensity”: 82.4 a.u.
`2'F-ANA at 1 2 3 4 5 6 9 10 12 13`: “mean fluorescence intensity” 49.6 a.u.
`2'F-ANA at 1 3 4 5 7 8 10 13 14 15`: “mean fluorescence intensity” 49.9 a.u.

Series 2
Target: CCNE1, cyclin fold, Cln2 fusion (human)
Technique: yeast growth competition, sequencing
Matrix: yeast
Notes: strong parent motif
Reference: not given
Direction: higher = stronger binding
Starting sequence: CDC25A docking peptide (human); PPHRRRLLFACSP
`PPHRRRLLFACSD [P13D]` — result for “normalised enrichment score”: 2.35.
`VPHRRRLLFACSP [P1V]` — result for “normalised enrichment score”: 0.848.
`FPHRRRLLFACSP [P1F]` — result for “normalised enrichment score”: 0.604.
`PPDRRRLLFACSP [H3D]` — result for “normalised enrichment score”: 1.13.
For `PPHRRYLLFACSP [R6Y]`, “normalised enrichment score” read 0.271.
`PPHRRRLYFACSP [L8Y]` — result for “normalised enrichment score”: 2.08.
`PPHRLRLLFACSP [R5L]`: “normalised enrichment score” 1.6.
Under “normalised enrichment score”, `PPHWRRLLFACSP [R4W]` is recorded as 0.941.
`PPHRGRLLFACSP [R5G]` — result for “normalised enrichment score”: 0.808.
`PPHRRRLLFACDP [S12D]` — result for “normalised enrichment score”: 1.67.
`PVHRRRLLFACSP [P2V]` — result for “normalised enrichment score”: 0.944.
`PPERRRLLFACSP [H3E]` — result for “normalised enrichment score”: 0.548.
Under “normalised enrichment score”, `PPHRRRLLFACST [P13T]` is recorded as 1.76.
Under “normalised enrichment score”, `PPHRRRDLFACSP [L7D]` is recorded as 0.0121.
`PPHRRRLLFAKSP [C11K]` — result for “normalised enrichment score”: 0.115.
For `WPHRRRLLFACSP [P1W]`, “normalised enrichment score” read 0.955.
`PPHRRRLQFACSP [L8Q]` — result for “normalised enrichment score”: 0.678.
`PPHRRRLGFACSP [L8G]` — result for “normalised enrichment score”: 0.628.
`PPHRPRLLFACSP [R5P]`: “normalised enrichment score” 0.103.
`PPHRRQLLFACSP [R6Q]` — result for “normalised enrichment score”: 1.21.

Series 3
Target: RNA binding protein fox-1 homolog 2, RRM domain, GST-SBP tag (RBFOX2, Homo sapiens, UniProt O43251-10, residues 100-194)
Technique: RNA Bind-n-Seq
Form: RNA
Matrix: in vitro
Concentration: 365 nM
Notes: natural RNA segment, single round, ends assumed
Reference: no-protein control
Direction: higher = stronger binding
Target sequence (chain): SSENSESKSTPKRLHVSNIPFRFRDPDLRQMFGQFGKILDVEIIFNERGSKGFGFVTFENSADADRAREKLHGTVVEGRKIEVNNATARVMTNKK
`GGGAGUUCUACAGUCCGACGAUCACUGAGUUACAUCUCCAUCCUGUAACUGAUCUUUGAGCUUGGUCAUCAGGCCCUUAAUUAUGGCAGAGAGGUAAUCAGCUGGCUACAGCCAGGAUGCUCAGCAUUGGAAGUGGAAUUCUCGGGUGCCAA`: “RBNS enrichment (R)” 0.265.
For `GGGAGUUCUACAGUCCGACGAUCUUCACAGGCUCCUCUGGCCCUGACCCCUCUUGCUCGUUCCCCUUCCUUCCGCAGCUCCUAGUCUCGUCCGUGACUUUCCGGUUGCCCUGGAUCUCAGAAUAUAUUCGUCCUGGAAUUCUCGGGUGCCAA`, “RBNS enrichment (R)” read 0.418.
`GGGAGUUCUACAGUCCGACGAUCUCAUCUCACGGACCCUCCGUUCUGCAUUAAGCCCCAGGUUCUCUUCUGGCUUUGAAAGGGCCCGAGUGCUCCCAGUGUAGCUUCGUCACAUCGUCACGAGCCCCUGUGGUUGGAAUUCUCGGGUGCCAA`: “RBNS enrichment (R)” 0.471.
Under “RBNS enrichment (R)”, `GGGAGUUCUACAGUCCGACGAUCUUUUUUUUUAUAAUAAGCCUUUUUACCUCUGUAAAAAUAUAUAUAUAUACAAGUGUAUGAUGUACAUUUUAGUUCUUAACUUUUUUAUGGUUUCUAAUAUGUAUGACCAAUGGAAUUCUCGGGUGCCAA` is recorded as 0.58.
`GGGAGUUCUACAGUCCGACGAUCAUUGUGGAUCUGCUAUCUAACAAUGUCAUGGAAAAGUGGUAUCUUAAAAUUUUAGGACCGAUUUCAGAAAUAGUCAAAGGAGCAACAGAACAUUCAUUGUAUUUUGGUCUUGGAAUUCUCGGGUGCCAA`: “RBNS enrichment (R)” 0.869.
Under “RBNS enrichment (R)”, `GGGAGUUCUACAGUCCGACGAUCGGCAAGAGAAUCACUUGAACCCGGGAGGUGGAGGUGGCAGUGAGCCGAGAUUGCGCCAUUGCACUCCAGCCUGGGCAAAAAGAGUGAGACUCUGUCUCAAAAAAAAAACAUGGAAUUCUCGGGUGCCAA` is recorded as 0.425.
`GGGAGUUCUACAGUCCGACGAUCAAAUCUGUGUUUGCUUUCUGCUUGCUACAUUUGUCUCCCUUACUUUUCUUGAGCUAAAGACAGGCUUUUUCCACCGGCAUCAUCACUGCUAUCAUCAUUAACAGCGUAAUUGGAAUUCUCGGGUGCCAA` — result for “RBNS enrichment (R)”: 4.32.
`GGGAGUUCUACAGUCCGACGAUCUUGAAGGGUGUUUUAGGGUAUCUGCCCACAGAUUUUCUCCAAACAAUUGGGAAGUGCCUAGAGUCCAGGCCCCGAUCAUCAAAGAUGUCUAUAUUGUAUAAUAUUUAAAGUGGAAUUCUCGGGUGCCAA`: “RBNS enrichment (R)” 0.298.

Series 4
Target: CEBPE, bZIP domain (human)
Technique: DHFR protein complementation
Matrix: yeast
Notes: single substitutions, most at no-binding floor
Reference: wild-type JUN-FOS pair
Direction: higher = stronger binding
Starting sequence: JUN, bZIP domain (human); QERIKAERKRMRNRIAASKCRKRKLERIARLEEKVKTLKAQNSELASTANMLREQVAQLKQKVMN; partner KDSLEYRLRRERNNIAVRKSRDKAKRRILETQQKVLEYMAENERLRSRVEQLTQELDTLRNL
The binding fitness of `M51K` is reported as -0.961 natural log.
The binding fitness of `R53Q` is reported as -0.924 natural log.
`K34R` gave a binding fitness of -0.941 natural log.
The binding fitness of `K39Y` is reported as -1.35 natural log.
For `A49E`, the binding fitness was -0.95 natural log.
With `E44M` the binding fitness was -1.25 natural log.
The binding fitness of `I28L` is reported as -0.811 natural log.
For `V35W`, the binding fitness was -1.32 natural log.
With `A40C` the binding fitness was -1.31 natural log.
`S47M` has a binding fitness of -1.14 natural log.
The binding fitness of `A57L` is reported as -1.18 natural log.
For `A49C`, the binding fitness was -1.13 natural log.
`L31A` has a binding fitness of -1.34 natural log.
For `R53M`, the binding fitness was -1.02 natural log.
With `Q55A` the binding fitness was -1.24 natural log.
With `E32D` the binding fitness was -1.2 natural log.
`E54L` gave a binding fitness of -1.31 natural log.
For `L45M`, the binding fitness was -1.42 natural log.
With `V35T` the binding fitness was -1.42 natural log.
For `L45G`, the binding fitness was -1.48 natural log.
`M51W` gave a binding fitness of -1.18 natural log.
